Measurements collected from several papers.
Numbered parts are unrelated; each lists some results of a single study. Values joined by “and” are separate records of one study, mostly repeats; a detail may differ.
Sequence of UniProt Q01959 (whole entry, looked up): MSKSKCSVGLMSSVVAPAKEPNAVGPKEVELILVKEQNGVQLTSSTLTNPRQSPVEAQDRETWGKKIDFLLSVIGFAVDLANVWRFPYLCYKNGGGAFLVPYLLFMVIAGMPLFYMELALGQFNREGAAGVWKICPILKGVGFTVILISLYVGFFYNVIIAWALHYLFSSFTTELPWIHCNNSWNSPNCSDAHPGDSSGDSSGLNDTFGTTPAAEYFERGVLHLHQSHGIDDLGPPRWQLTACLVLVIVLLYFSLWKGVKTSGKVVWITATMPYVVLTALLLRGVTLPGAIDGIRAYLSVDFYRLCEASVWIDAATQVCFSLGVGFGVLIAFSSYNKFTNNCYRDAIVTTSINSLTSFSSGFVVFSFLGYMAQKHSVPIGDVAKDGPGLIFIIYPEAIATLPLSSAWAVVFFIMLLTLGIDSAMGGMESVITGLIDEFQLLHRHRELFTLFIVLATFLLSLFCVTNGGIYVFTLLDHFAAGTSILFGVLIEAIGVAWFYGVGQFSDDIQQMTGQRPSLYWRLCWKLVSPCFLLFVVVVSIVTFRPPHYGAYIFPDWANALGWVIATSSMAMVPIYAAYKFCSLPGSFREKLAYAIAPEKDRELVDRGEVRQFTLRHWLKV
Sequence of UniProt P20309 (whole entry, looked up): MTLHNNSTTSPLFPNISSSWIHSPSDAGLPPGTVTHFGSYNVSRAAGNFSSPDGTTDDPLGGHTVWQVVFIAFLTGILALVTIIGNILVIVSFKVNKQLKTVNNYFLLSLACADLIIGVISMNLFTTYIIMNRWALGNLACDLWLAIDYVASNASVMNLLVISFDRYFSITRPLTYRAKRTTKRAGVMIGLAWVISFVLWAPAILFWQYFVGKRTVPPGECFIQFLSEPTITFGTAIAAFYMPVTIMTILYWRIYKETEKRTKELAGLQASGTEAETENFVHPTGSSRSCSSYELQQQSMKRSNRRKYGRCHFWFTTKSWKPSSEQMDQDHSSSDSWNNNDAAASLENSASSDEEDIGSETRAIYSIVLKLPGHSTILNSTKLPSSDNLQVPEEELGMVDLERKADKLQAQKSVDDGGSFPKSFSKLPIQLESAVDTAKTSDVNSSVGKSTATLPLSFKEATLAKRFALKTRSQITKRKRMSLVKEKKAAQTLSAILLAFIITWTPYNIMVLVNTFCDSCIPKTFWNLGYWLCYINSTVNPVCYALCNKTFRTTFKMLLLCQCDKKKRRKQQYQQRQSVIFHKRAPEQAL

Sample 1
Target: Calcium/calmodulin-dependent protein kinase type II subunit alpha (CAMK2A, Homo sapiens, UniProt Q9UQM7)
Sequence of UniProt Q9UQM7 (whole entry, looked up): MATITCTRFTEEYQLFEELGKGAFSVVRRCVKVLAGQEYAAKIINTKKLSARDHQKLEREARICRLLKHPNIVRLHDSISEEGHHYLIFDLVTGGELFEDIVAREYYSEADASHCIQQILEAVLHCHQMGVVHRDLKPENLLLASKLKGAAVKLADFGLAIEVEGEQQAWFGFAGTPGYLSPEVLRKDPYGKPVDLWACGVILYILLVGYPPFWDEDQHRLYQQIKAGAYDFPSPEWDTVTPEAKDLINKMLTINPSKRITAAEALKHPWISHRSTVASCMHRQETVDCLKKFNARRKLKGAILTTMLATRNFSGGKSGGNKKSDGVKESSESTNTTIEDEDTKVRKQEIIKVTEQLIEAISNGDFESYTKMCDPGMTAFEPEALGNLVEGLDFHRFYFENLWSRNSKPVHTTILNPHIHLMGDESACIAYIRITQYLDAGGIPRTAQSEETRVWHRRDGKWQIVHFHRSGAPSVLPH
Observed: enzyme activity
Action: inhibitor
Tested at: 10 µM
SMILES	inhibition
Clc1ccc(C(OCCN2CCCCC2)c2ccccc2)cc1 (stereo not drawn)	-6%
N#CCCN	-42%
C=C(C)[C@@H]1[C@H]2OC(=O)[C@@H]1[C@]1(O)C[C@H]3O[C@]34C(=O)O[C@H]2[C@]14C	69%
O=C(Nc1ccccc1)Nc1ccnc(Cl)c1	4%
CC(C)OC(=O)[C@H](C)N[P@](=O)(CO[C@H](C)Cn1cnc2c(N)ncnc21)Oc1ccccc1	0.06% and -0.08% and 0%
CC(C)c1cccc(C(C)C)c1O	-9%
c1ccc2c(c1)Sc1ccccc1N2CC1CN2CCC1CC2 (stereo not drawn)	5%
O=C1c2ccccc2C(=O)c2ccccc21	-14%
CO[C@H]1[C@@H](O)[C@H](O[C@@H]2[C@@H](C)O[C@@H](O[C@H]3CC[C@@]4(C)[C@@H](CC[C@@]56O[C@@]57CC[C@@H](C(C)=O)[C@@]7(C)[C@H](OC(C)=O)[C@@H](OC(=O)c5ccccc5)[C@H]46)C3)C[C@H]2OC)O[C@H](C)[C@H]1O	-66%
CC(C)C1=CC(=O)[C@@](C)([C@H]2[C@H](O)C[C@@]3(C)[C@@H]4CC=C5[C@@H](CC[C@@H](O[C@@H]6OC[C@@H](O)[C@H](O)[C@H]6O[C@@H]6O[C@@H](C)[C@H](O)[C@@H](O)[C@H]6O)C5(C)C)[C@]4(C)C(=O)C[C@]23C)O1	-4%
O=C(C[C@H]1NCCC[C@@H]1O)Cn1cnc2ccccc2c1=O	-37%

Sample 2
Target: DNA polymerase theta, ATPase domain (POLQ, Homo sapiens, UniProt O75417)
Sequence of UniProt O75417 (whole entry, unmodified, looked up): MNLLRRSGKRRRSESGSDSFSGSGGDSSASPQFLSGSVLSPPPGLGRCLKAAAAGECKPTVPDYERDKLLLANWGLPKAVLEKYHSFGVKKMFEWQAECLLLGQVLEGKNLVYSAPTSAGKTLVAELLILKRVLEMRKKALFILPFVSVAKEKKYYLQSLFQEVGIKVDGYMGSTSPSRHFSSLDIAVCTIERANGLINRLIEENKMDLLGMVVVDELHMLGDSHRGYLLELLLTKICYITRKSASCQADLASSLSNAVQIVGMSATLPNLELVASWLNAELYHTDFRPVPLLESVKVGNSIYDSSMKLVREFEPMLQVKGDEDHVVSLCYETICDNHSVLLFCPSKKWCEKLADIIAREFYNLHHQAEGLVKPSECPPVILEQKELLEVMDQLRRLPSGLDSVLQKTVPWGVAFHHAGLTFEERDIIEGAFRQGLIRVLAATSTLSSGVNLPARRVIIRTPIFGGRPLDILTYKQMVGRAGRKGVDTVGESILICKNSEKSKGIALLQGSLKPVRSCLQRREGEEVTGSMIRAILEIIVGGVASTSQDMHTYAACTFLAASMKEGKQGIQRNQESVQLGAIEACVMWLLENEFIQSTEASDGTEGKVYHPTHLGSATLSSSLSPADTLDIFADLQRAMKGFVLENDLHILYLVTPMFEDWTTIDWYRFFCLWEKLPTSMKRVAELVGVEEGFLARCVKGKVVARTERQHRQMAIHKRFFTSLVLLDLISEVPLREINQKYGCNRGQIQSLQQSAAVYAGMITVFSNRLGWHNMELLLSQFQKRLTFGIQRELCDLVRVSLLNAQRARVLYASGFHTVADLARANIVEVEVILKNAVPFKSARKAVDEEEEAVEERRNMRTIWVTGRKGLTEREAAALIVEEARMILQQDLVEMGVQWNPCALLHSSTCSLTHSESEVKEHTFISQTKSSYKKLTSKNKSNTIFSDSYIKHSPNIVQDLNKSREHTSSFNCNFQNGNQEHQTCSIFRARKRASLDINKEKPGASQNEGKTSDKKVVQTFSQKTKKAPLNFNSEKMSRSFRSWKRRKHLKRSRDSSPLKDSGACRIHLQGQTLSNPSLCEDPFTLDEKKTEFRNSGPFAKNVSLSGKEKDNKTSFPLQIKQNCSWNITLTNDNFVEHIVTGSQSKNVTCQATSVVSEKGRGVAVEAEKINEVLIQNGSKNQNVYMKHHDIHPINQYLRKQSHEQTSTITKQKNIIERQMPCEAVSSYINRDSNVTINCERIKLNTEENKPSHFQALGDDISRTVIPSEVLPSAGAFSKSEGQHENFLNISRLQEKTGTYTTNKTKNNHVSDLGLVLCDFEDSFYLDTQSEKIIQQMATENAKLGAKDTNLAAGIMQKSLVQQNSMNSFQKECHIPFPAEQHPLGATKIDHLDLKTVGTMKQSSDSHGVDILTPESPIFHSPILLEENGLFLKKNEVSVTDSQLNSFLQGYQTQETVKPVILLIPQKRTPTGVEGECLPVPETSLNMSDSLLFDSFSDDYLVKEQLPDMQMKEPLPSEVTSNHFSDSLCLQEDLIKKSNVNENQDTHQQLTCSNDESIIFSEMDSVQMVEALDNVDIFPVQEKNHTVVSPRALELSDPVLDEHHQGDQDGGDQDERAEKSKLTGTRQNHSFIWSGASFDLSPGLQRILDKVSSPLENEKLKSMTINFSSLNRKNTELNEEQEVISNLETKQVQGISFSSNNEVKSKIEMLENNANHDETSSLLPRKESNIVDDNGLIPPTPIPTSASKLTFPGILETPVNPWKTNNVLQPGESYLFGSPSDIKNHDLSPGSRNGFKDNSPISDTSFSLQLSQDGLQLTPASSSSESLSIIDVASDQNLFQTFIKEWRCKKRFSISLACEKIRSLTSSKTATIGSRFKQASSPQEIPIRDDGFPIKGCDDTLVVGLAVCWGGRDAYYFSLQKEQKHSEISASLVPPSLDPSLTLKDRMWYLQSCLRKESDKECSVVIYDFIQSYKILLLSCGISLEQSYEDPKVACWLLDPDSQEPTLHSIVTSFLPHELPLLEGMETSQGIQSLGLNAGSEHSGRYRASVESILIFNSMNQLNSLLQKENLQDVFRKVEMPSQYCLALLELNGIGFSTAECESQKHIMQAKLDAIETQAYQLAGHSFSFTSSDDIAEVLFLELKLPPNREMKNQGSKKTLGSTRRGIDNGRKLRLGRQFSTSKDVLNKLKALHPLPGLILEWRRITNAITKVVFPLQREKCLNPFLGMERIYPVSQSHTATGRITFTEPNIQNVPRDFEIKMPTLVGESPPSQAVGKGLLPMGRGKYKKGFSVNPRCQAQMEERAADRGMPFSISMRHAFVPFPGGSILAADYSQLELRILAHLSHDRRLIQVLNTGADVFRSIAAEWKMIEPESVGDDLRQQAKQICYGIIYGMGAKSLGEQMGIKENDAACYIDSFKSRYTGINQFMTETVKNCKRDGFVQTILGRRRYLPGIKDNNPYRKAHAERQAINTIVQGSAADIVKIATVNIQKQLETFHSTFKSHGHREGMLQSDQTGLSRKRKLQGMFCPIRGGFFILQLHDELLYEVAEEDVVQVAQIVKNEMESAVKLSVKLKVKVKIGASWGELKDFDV
Observed: enzyme activity
Action: inhibitor
Tested at: 77 µM
Baseline: untreated
Compound	remaining activity
C[C@H]1CC[C@]2(NC1)O[C@H]1C[C@H]3[C@@H]4CC[C@H]5C[C@@H](O[C@@H]6O[C@H](CO)[C@H](O[C@@H]7O[C@H](CO)[C@@H](O)[C@H](O[C@@H]8OC[C@@H](O)[C@H](O)[C@H]8O)[C@H]7O[C@@H]7O[C@H](CO)[C@@H](O)[C@H](O)[C@H]7O)[C@H](O)[C@H]6O)CC[C@]5(C)[C@H]4CC[C@]3(C)[C@H]1[C@@H]2C	98%
CC(=O)O[C@@]12CO[C@@H]1C[C@H](O)[C@@]1(C)C(=O)[C@H](O)C3=C(C)[C@@H](O)C[C@@](O)([C@@H](OC(=O)c4ccccc4)[C@H]21)C3(C)C	97%
C[C@]12CC[C@H]3[C@@H](CCC4=CC(=O)CC[C@@H]43)[C@@H]1CC[C@@H]2O	101%
C[C@]12CCC(=O)C=C1CC[C@@H]1[C@@H]2C(=O)C[C@]2(C)C(=O)CC[C@@H]12	109%
N[C@]1(C(=O)O)CC[C@H](C(=O)O)C1	111%

Sample 3
SMILES: O=C(O)[C@@H]1[C@@H](Cn2nnc3ccccc3c2=O)CC[C@H]1C(=O)c1ccc(OCCC2CCOCC2)cc1
Observed: binding
Method: radioligand binding
Tested at: 10 µM
target	inhibition [%]
Sodium-dependent dopamine transporter (SLC6A3, Homo sapiens, UniProt Q01959)	-23.5
Kappa-type opioid receptor (OPRK1, Homo sapiens, UniProt P41145)	8.5
Sodium-dependent noradrenaline transporter (SLC6A2, Homo sapiens, UniProt P23975)	-10.1
Mu-type opioid receptor (OPRM1, Homo sapiens, UniProt P35372)	-10.1
Sodium-dependent serotonin transporter (SLC6A4, Homo sapiens, UniProt P31645)	10.2
D(1B) dopamine receptor (DRD5, Homo sapiens, UniProt P21918)	19.6
Muscarinic acetylcholine receptor M3 (CHRM3, Homo sapiens, UniProt P20309)	5.09

Sample 4
Target: Beta-1 adrenergic receptor (ADRB1, Homo sapiens, UniProt P08588)
Sequence of UniProt P08588 (whole entry, looked up): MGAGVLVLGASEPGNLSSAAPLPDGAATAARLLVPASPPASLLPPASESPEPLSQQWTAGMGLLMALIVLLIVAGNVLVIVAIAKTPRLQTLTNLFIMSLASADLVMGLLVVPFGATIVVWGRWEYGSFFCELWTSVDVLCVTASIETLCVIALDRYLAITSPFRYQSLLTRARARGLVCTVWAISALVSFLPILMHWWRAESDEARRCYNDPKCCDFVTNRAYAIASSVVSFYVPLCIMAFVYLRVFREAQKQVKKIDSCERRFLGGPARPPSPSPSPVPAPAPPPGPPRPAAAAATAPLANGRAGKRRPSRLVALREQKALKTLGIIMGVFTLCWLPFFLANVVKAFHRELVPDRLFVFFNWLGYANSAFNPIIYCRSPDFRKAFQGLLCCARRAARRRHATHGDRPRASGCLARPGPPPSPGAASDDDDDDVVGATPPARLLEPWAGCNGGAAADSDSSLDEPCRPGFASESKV
Action: antagonist
SMILES	IC50
COCCN1CCN(c2ccccc2OC)CC1	≥ 100 µM
NCCc1cc(O)c(O)cc1O	≥ 100 µM
CC1=C(C)C(=O)O[C@H]([C@](C)(O)C2(O)CC[C@@]3(O)[C@@H]4CC=C5CC=CC(=O)[C@]5(C)C4CC[C@]23C)C1 (stereo partly drawn)	≥ 100 µM
COc1cc2c(cc1OCc1ccccc1)N(C(=O)c1cccc3[nH]ccc13)CC21CCN(C)CC1	≥ 100 µM

Some of these lines once more (sample 2):
Compound	remaining activity
C[C@]12CCC(=O)C=C1CC[C@@H]1[C@@H]2C(=O)C[C@]2(C)C(=O)CC[C@@H]12	109%
CC(=O)O[C@@]12CO[C@@H]1C[C@H](O)[C@@]1(C)C(=O)[C@H](O)C3=C(C)[C@@H](O)C[C@@](O)([C@@H](OC(=O)c4ccccc4)[C@H]21)C3(C)C	97%
C[C@H]1CC[C@]2(NC1)O[C@H]1C[C@H]3[C@@H]4CC[C@H]5C[C@@H](O[C@@H]6O[C@H](CO)[C@H](O[C@@H]7O[C@H](CO)[C@@H](O)[C@H](O[C@@H]8OC[C@@H](O)[C@H](O)[C@H]8O)[C@H]7O[C@@H]7O[C@H](CO)[C@@H](O)[C@H](O)[C@H]7O)[C@H](O)[C@H]6O)CC[C@]5(C)[C@H]4CC[C@]3(C)[C@H]1[C@@H]2C	98%
